# Experimental data from different studies.
# Values joined by “and” are separate records of one study, mostly repeats; a detail may differ. ± marks the error that the study gave.
# CD38: ADP-ribosyl cyclase/cyclic ADP-ribose hydrolase 1 (CD38, Homo sapiens, UniProt P28907)
# Seed linoleate 13S-lipoxygenase-1: Seed linoleate 13S-lipoxygenase-1 (Glycine max, UniProt P08170)
# EGLN2: Prolyl hydroxylase EGLN2 (EGLN2, Homo sapiens, UniProt Q96KS0)
SMILES,target,assay,test system,setting,IC50
C=CCC(=N)NCCC[C@H](N)C(=O)O,"Nos1 (Rattus norvegicus, UniProt P29476)",item: cGMP,immature rat cerebellar slices,"2 min, with: NMDA 100 µM",1.3 µM
O=C(O)c1cc2ccccc2o1,"Adenylate cyclase type 10 (Homo sapiens, UniProt Q96PN6)",,,,> 1000 µM
COc1ccc(C(=O)/C=C(\O)C(F)(F)C(F)(F)F)c(O)c1,"Formate-nitrite transporter (FNT, Plasmodium ovale, UniProt A0A1D3TGZ2)","L-lactate transport, inhibitor",yeast,"pH 6.8, with: 14C-L-lactate 1 mM",0.16 ± 0.01 µM
CN(C)c1ccc2c3c(cccc13)C(=O)N(CCS)C2=O,"Metallo-beta-lactamase type 2 (Serratia marcescens, UniProt P52699)","enzyme activity, inhibitor",,"pH 7.0, with: chromacef 25 µM",0.23 ± 0.02 µM
C=C(NC(=O)C(=C)NC(=O)c1csc(C2=NC3c4csc(n4)C4NC(=O)c5csc(n5)C(C(C)(O)C(C)O)NC(=O)C5CSC(=N5)C(=CC)NC(=O)C(C(C)O)NC(=O)c5csc(n5)C3(CC2)NC(=O)CNC(=O)C(=C)NC(=O)C(C)NC(=O)C(C(C)CC)NC2C=Cc3c(C(C)O)cc(nc3C2O)C(=O)OC4C)n1)C(N)=O (centres unmarked),"Proteasome subunit beta type-7, in 20S proteasome (PSMB7, Homo sapiens, UniProt Q99436)","trypsin-like activity, inhibitor",purified 20S proteasome,"15 min preincubation, 37 °C, with: Boc-Leu-Arg-Arg-AMC substrate",0.41 ± 0.05 µM
Cc1ccc2nc(-c3cc(-c4cnn(C5CCNCC5)c4)cnc3N)oc2c1O,"JAK2 (Homo sapiens, UniProt O60674)","enzyme activity, inhibitor, TR-FRET",,,2.1 µM
N#Cc1c(O)nsc1Nc1ccccc1,"SARM1 (Homo sapiens, UniProt Q6SZW1)","NADase activity, inhibitor, item: ADPR",,"SAM-TIR domain, wild type",4 µM
c1ccc(Cn2nnc3c(SC4=NCCO4)ncnc32)cc1,"NADPH oxidase 4 (NOX4, Homo sapiens, UniProt Q9NPH5)","enzyme activity, inhibitor, fluorescence",,,31.9 µM
CC(C)NCc1ccc(C[C@@H]2NC(=O)[C@@H](Cc3c[nH]c4ccccc34)NC(=O)[C@H](Cc3ccccc3)NC(=O)[C@H](N)CSSC[C@@H](C(=O)N[C@@H](Cc3ccc4ccccc4c3)C(N)=O)NC(=O)[C@H](Cc3ccc(O)c(I)c3)NC2=O)cc1,"SSTR3 (Homo sapiens, UniProt P32745)","ligand displacement, radioligand",,cell membranes,0.438 µM
CC(C)C[C@@H](NC(=O)[C@@H](Cc1ccccc1)NC(=O)[C@H]1CCCN1C(=O)[C@@H](CCC(N)=O)NC(=O)[C@H](NC(=O)[C@H]1CCCN1C(=O)[C@@H](CCCNC(=N)N)NC(=O)[C@@H](CO)NC(=O)[C@@H](CCC(N)=O)NC(=O)[C@@H](CC(=O)O)NC(=O)[C@H](N)[C@H](C)O)C(C)C)C(=O)N[C@H](CC(N)=O)C(=O)N[C@H](CC(C)C)C(=O)N[C@@H](C(=O)N[C@@H](C(=O)N1CCC[C@@H]1C(=O)N[C@H](CCCNC(=N)N)C(=O)N[C@H](CCCCN)C(=O)N1CCC[C@@H]1C(=O)N[C@H](CCCNC(=N)N)C(=O)N1CCC[C@@H]1C(=O)N1CCC[C@@H]1C(=O)N[C@H](CCCNC(=N)N)C(=O)N[C@H](CCCNC(=N)N)C(=O)N[C@H](CCCNC(=N)N)C(=O)N[C@H](CCC(N)=O)C(=O)N[C@H](CCCNC(=N)N)C(=O)N[C@H](CCCNC(=N)N)C(=O)N[C@H](CCCCN)C(=O)N[C@H](CCCCN)C(=O)N[C@H](CCCNC(=N)N)C(=O)NCC(N)=O)[C@H](C)O)[C@H](C)O,"Mapk14 (Mus musculus, UniProt P47811)","enzyme activity, inhibitor, radiometric",,pH 7.5,1.87 µM and 1.8 µM
Cc1ccc(-c2cc(C(=O)NCc3ccc(S(N)(=O)=O)cc3)c3cc(Br)ccc3n2)o1,"TPR (Trypanosoma brucei brucei, UniProt P39051)","inhibitor, DTNB-coupled colourimetric",,with: substrate at Km,8.4 µM
Cc1cc2c(c(O)c1O)C(=O)c1c(O)cc(O)cc1C2=O,"AVPR1A (Homo sapiens, UniProt P37288)","agonist response, antagonist",,with: vasopressin 10 nM,11.5 ± 1.08 µM
COc1cc(F)cc(-c2nc3ccc(C(=O)NCCCN(C)C)cc3n2C2CCC2)c1,"ACVR1 (Homo sapiens, UniProt Q04771)","target engagement in cells, BRET",,,10.7 µM
CC(C)CCOc1cc(C[n+]2cn(CCC(C)C)c3ccccc32)c(OCCC(C)C)c2ccccc12,"MAPK7 (Homo sapiens, UniProt Q13164)","enzyme activity, inhibitor, FRET",,,8.8 µM
CNC(=O)c1cc(C)ccc1NC(=O)c1ccc(-c2c(C)ccc3[nH]ncc23)c(C)c1,"YES1 (Homo sapiens, UniProt P07947)","target engagement in cells, BRET",,,27.5 µM
CC(C)(C)NCCCNC(=O)c1ccnc(C(F)(F)F)c1,"PHF23 (Homo sapiens, UniProt Q9BUL5)","methyl-lysine reader binding, inhibitor, AlphaScreen",,,> 100 µM
COc1ccc(S(=O)(=O)n2nc(OC(=O)c3cccc(-c4ccccc4)c3)cc2N)cc1,"Genome polyprotein, protease (West Nile virus, UniProt P06935)","enzyme activity, inhibitor, fluorescence",,with preincubation,1.1 µM
O=C(c1ccccc1)N1CCN(c2ccc(F)cc2)CC1,"SEC14 (Saccharomyces cerevisiae, UniProt P24280)","enzyme activity, inhibitor, radiometric",,,> 100 µM
N=C(CCl)NCCC[C@H](NC(=O)c1ccc(/N=N/c2ccccc2)cc1)c1nc2ccccc2[nH]1,"PADI2 (Homo sapiens, UniProt Q9Y2J8)","inhibitor, competitive ABPP",,"2 h, 37 °C, 30 min preincubation, with: RFA probe 2 µM",> 100 µM
COc1ccc(-c2cc(/C=C3/SC(=S)NC3=O)no2)cc1,CD38,"enzyme activity, inhibitor, fluorescence",,,3.71 µM
N#C/C(=C\c1ccc(C(N)=O)cc1)C(N)=O,"Ribosomal protein S6 kinase alpha-3, C-terminal kinase domain (RPS6KA3, Homo sapiens, UniProt P51812)","enzyme activity, inhibitor",,"10 mM reduced glutathione, with: 0.1 mM ATP, peptide substrate",7 µM
O=c1c(O)c(-c2ccc(O)cc2O)oc2cc(O)cc(O)c12,CD38,"hydrolase activity, fluorometric",,with: ε-NAD+ substrate,> 100 µM
CC(=O)NCCN(CC(=O)NCCN(CC(=O)NCCN(CC(=O)NCCC(N)=O)C(=O)[C@@H](N)Cc1ccccc1)C(=O)[C@@H](N)CCCNC(=N)N)C(=O)[C@@H](N)Cc1ccccc1,HIV-1 TAR RNA,"Tat/TAR complex displacement, FRET",,"room temperature, with: 10 nM Tat/TAR complex",599 ± 5 µM
Nc1ncnc2c1ncn2C1OC(COP(=O)(O)O)C(O)C1O (centres unmarked),"Fructose-1,6-bisphosphatase 1 (Mus musculus, UniProt Q9QXD6)","enzyme activity, inhibitor",native enzyme from mouse liver,,~20 µM
CC(=O)N[C@H]1[C@@H](OC(=O)NCCCOCCOCCOCCCNC(=O)O[C@H]2O[C@H](CNC(=O)OCCOCCOCCOCCOCCOCCOCCOCCOCCOCCOC(=O)NC[C@H]3O[C@H](OC(=O)NCCCOCCOCCOCCCNC(=O)O[C@H]4O[C@H](CO)[C@@H](O)[C@H](O)[C@H]4NC(C)=O)[C@H](NC(C)=O)[C@@H](O)[C@@H]3O)[C@@H](O)[C@H](O)[C@H]2NC(C)=O)O[C@H](CO)[C@@H](O)[C@@H]1O,wheat germ agglutinin (Triticum vulgaris),"binding to immobilised GlcNAc, inhibitor, enzyme-linked lectin",,with: HRP-labelled WGA,0.0069 µM
COc1cccc(NCc2cn(-c3ccccc3)nc2-c2ccc(OCc3ccccc3)cc2)c1,"PTGS1 (Homo sapiens, UniProt P23219)","enzyme activity, inhibitor, absorbance",,,104 µM
NC(=O)[C@@H]1CCCN1C(=O)[C@H](Cc1cn(Cc2ccccc2)cn1)NC(=O)c1cnccn1,"Thyrotropin-releasing hormone receptor (Mus musculus, UniProt P21761)","ligand displacement, radioligand",,,> 50 µM
CSCC[C@H](NC(=O)[C@@H]1CCCN1C(=O)[C@@H](NC(=O)[C@H](Cc1ccc(O)cc1)NC(=O)[C@@H](N)CC(=O)O)C(C)C)C(=O)N[C@@H](CCC(=O)O)C(=O)N[C@@H](CCC(N)=O)C(=O)N1CCC[C@H]1C(=O)N[C@@H](CCCNC(=N)N)C(=O)N1CCC[C@H]1C(=O)O,"H-2 class I histocompatibility antigen, K-D alpha chain, 29 (H2-K1, Mus musculus, UniProt P01902)","binding, competitor, radioligand competition",,"purified MHC, mutant peptide, with: radiolabeled standard peptide",> 70 µM
O=C1C[C@H](c2ccc(O)c(O)c2)c2c(cc(O)c3c2O[C@H](c2ccc(O)c(O)c2)[C@H](O)C3)O1,"DPP4 (Sus scrofa, UniProt P22411)","enzyme activity, inhibitor, absorbance",,,181 µM
COc1cccc(/C=C/C(=O)c2cccc3ccccc23)c1OC,Seed linoleate 13S-lipoxygenase-1,"enzyme activity, inhibitor, absorbance",,,92.3 µM
CCn1c(SC(C)C(=O)Nc2ccc(C)cc2C)nnc1C1CCN(C(=O)Nc2ccccc2)CC1 (centres unmarked),Seed linoleate 13S-lipoxygenase-1,"enzyme activity, inhibitor",,,21.6 µM
CC(C)(C)OC(=O)N1CCN(c2ccc3c(O)c(C(=O)NCc4ccc(C#N)nc4)ncc3n2)CC1,EGLN2,"enzyme activity, inhibitor, AlphaScreen",,,0.0019 µM
CN(C(=O)c1ccn2ncc(-c3ccc(C(N)=O)cc3)c2c1)c1ccc(C#N)cn1,"ZAP70 (Homo sapiens, UniProt P43403)","enzyme activity, inhibitor",,,> 10 µM
COc1ccc(-c2cc(C(F)(F)F)n3nc(N)nc3n2)cc1OC,"Sensor histidine protein kinase/phosphatase WalK (walK, Streptococcus pneumoniae, UniProt Q8DPL8)","enzyme activity, ATP-competitive inhibitor",,,26.4 µM
NCCCCCO[C@H]1O[C@H](COS(=O)(=O)O)[C@@H](O[C@@H]2O[C@@H](C(=O)O)[C@@H](O[C@H]3O[C@H](COS(=O)(=O)O)[C@@H](O[C@@H]4O[C@@H](C(=O)O)[C@@H](O[C@H]5O[C@H](COS(=O)(=O)O)[C@@H](O[C@@H]6O[C@@H](C(=O)O)[C@@H](O)[C@H](O)[C@H]6OS(=O)(=O)O)[C@H](O)[C@H]5NS(=O)(=O)O)[C@H](O)[C@H]4OS(=O)(=O)O)[C@H](O)[C@H]3NS(=O)(=O)O)[C@H](O)[C@H]2OS(=O)(=O)O)[C@H](O)[C@H]1NS(=O)(=O)O,"F10 (Bos taurus, UniProt P00743)","enzyme activity, inhibitor, absorbance",,,85 µg/mL
COc1ccc(/C=C2/C(=O)Cc3c2[nH]c2ccccc32)cc1,"Aurora kinase B (AURKB, Homo sapiens, UniProt Q96GD4)","enzyme activity, inhibitor, radiometric",,,1.6 µM
O=c1n(-c2cccnc2)cnn1-c1ccccn1,EGLN2,"enzyme activity, inhibitor, europium VBC binding",,"10 µM FeSO4, 2 mM ascorbate, with: 20 µM 2-oxoglutarate",> 50 µM
Cc1cn([C@H]2C[C@H](O)[C@@H](COP(=O)(O)O)O2)c(=O)[nH]c1=O,"Thymidylate kinase (DTYMK, Homo sapiens, UniProt P23919)",ligand displacement,,,4.6 µM
O=C(O)c1ccc(Nc2c(-c3ccc(CON=Cc4ccc(-c5ccccn5)cc4)cc3)nc3cc(-c4ccccc4)ccn23)cc1,"TDP1 (Homo sapiens, UniProt Q9NUW8)","enzyme activity, inhibitor, HPLC",,,73 µM
Cn1c(=O)c2c(nc(CN3CCN(C(=O)C4CC4)CC3)n2Cc2ccccc2)n(C)c1=O,"ALDH2 (Homo sapiens, UniProt P05091)","enzyme activity, inhibitor",,,> 57 µM
CC(=O)NCCN(CC(=O)NCCN(CC(=O)NCCN(CC(=O)NCCC(N)=O)C(=O)C[C@@H](N)CCCNC(=N)N)C(=O)C[C@@H](N)CCCNC(=N)N)C(=O)C[C@@H](N)Cc1ccccc1,HIV-1 TAR RNA,"Tat/TAR complex displacement, FRET",,"room temperature, with: 10 nM Tat/TAR complex",0.8 ± 0.3 µM
Cc1cc(O)c2c(c1)C(=O)c1cc3oc(=O)cc(-c4ccc(O)cc4)c3c(O)c1C2=O,mushroom tyrosinase,enzyme activity,,with: L-DOPA,> 100 µg/mL
C=C(C)C(=O)Nc1ccc(-c2c(C#Cc3cc(OC)cc(OC)c3)c3c(N)ncnc3n2C)cc1,"FGFR2 (Homo sapiens, UniProt P21802)",Caliper mobility shift,,"30 min preincubation, with: 100 µM ATP",0.037 µM
CNC(=O)C1CCN(c2cc(C)c(F)cc2NC(=O)c2ccc(-c3c(C)ccc4[nH]ncc34)c(C)c2)CC1,"EPHB2 (Homo sapiens, UniProt P29323)","target engagement in cells, BRET",,,0.06 µM

# A few entries again:
SMILES,target,assay,test system,setting,IC50
COc1ccc(S(=O)(=O)n2nc(OC(=O)c3cccc(-c4ccccc4)c3)cc2N)cc1,"Genome polyprotein, protease (West Nile virus, UniProt P06935)","enzyme activity, inhibitor, fluorescence",,with preincubation,1.1 µM
CC(C)(C)NCCCNC(=O)c1ccnc(C(F)(F)F)c1,"PHF23 (Homo sapiens, UniProt Q9BUL5)","methyl-lysine reader binding, inhibitor, AlphaScreen",,,> 100 µM
N=C(CCl)NCCC[C@H](NC(=O)c1ccc(/N=N/c2ccccc2)cc1)c1nc2ccccc2[nH]1,"PADI2 (Homo sapiens, UniProt Q9Y2J8)","inhibitor, competitive ABPP",,"2 h, 37 °C, 30 min preincubation, with: RFA probe 2 µM",> 100 µM
O=C(O)c1ccc(Nc2c(-c3ccc(CON=Cc4ccc(-c5ccccn5)cc4)cc3)nc3cc(-c4ccccc4)ccn23)cc1,"TDP1 (Homo sapiens, UniProt Q9NUW8)","enzyme activity, inhibitor, HPLC",,,73 µM
CN(C)c1ccc2c3c(cccc13)C(=O)N(CCS)C2=O,"Metallo-beta-lactamase type 2 (Serratia marcescens, UniProt P52699)","enzyme activity, inhibitor",,"pH 7.0, with: chromacef 25 µM",0.23 ± 0.02 µM
